{"data": "Assay results pooled from the literature", "note": "Every numbered part comes from another study and shows a few of its results, in no order."}
{"data": "Study 1", "target": "Ras GTPase-activating protein-binding protein 1, full length (G3BP1, Homo sapiens, UniProt Q13283)", "technique": "RNA Bind-n-Seq", "molecule type": "RNA", "sample": "in vitro", "concentration": "200 nM", "setting": "whole 134-nt RNA, ends assumed", "with": "150 mM LiCl", "baseline": "input library", "direction": "higher = stronger binding", "all molecules": "7-deaza-guanosine replaces G", "shared flanks, not repeated": "GGGAGUUCUACAGUCCGACGAUC … UGGAAUUCUCGGGUGUCAAGG", "chain of UniProt Q13283 (whole entry, looked up)": "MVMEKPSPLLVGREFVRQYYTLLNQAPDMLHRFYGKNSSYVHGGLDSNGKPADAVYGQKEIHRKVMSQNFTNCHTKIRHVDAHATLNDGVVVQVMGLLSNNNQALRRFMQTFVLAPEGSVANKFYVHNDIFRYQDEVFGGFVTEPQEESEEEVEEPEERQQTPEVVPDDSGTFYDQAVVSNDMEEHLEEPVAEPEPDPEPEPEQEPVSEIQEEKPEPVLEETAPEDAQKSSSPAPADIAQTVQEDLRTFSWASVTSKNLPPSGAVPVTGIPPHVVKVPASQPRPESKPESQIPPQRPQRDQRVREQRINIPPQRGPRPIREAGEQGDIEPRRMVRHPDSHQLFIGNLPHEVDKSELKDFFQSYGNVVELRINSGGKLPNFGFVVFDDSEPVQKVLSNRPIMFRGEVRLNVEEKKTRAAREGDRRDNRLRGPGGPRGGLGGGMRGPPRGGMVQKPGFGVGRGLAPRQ"}
{"Oligonucleotide": "CCUGUGCUACACAUCGUAUGUACCGAAUCGGGGUUUUUUUGGGGAGGGGUUUUUUUGGGGAAAGUAUUAUGUUACGCCGUUCGGAUCUGC", "log2 enrichment": 1.04}
{"Oligonucleotide": "AAGUCCUGUGCUACACAUCGUAUGUACCGAAUCGGUUUUUGGUUUUUUUGGAAAGGAAAGUAUUAUGUUACGCCGUUCGGAUCUGCACUU", "log2 enrichment": -0.981}
{"Oligonucleotide": "ACCAUGCAGGUGGGCAUCUUUGGGAAGUGGGGCAAGGGGGGGAUAGGGAGGGGGGUAAAACUUUGGGAACAGGUGGUCCCAGGUCGUUUC", "log2 enrichment": 0.0828}
{"Oligonucleotide": "ACCAUGCAGGUGGGCAUCUUUGGGAAGUGGGGCAAGGGGGGGAUAGGGAGGGGGGUAACACUUUGGGAACAGGUGGUCCCAGGUCGUGUC", "log2 enrichment": 0.203}
{"Oligonucleotide": "GCAGGAAGUAAAAACAAAUGGAAAUGCUUCGGAUAGUGGCAGGGCUGGGGGUUGCUAAGGAAAGGGUGGGAUGGGAGUGGGUAAAGAGUU", "log2 enrichment": 0.0688}
{"data": "Study 2", "target": "Interferon regulatory factor 7, full length, phosphomimetic (IRF7, Homo sapiens, UniProt Q92985, residues 1-503, S101K/S471D/S472D/S475D/S476D/S477D/S483D/S484D/S487D)", "technique": "protein-binding microarray", "molecule type": "double-stranded DNA, one strand shown", "sample": "in vitro", "concentration": "250 nM", "setting": "60-bp whole probe", "with": "salmon DNA 0.4 mg/ml", "baseline": "random background probes", "direction": "higher = stronger binding", "shared flanks, not repeated": "GCCTAGCAC … GTCTTGATTCGCTTGACGCTGCTG", "Target sequence (chain)": "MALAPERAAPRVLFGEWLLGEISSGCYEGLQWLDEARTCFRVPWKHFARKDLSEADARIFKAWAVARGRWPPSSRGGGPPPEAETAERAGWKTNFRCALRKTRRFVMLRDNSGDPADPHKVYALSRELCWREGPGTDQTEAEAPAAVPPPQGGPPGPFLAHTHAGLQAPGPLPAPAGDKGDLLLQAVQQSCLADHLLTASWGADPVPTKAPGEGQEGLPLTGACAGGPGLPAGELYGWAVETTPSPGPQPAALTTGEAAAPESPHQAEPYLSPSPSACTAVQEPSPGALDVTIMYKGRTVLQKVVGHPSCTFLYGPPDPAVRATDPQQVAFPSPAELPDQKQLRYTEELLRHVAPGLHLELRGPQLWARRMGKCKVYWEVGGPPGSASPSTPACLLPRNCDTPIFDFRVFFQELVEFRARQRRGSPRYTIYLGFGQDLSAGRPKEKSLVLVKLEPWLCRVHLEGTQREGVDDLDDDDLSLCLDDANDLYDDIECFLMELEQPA"}
{"Oligonucleotide": "GACGGTTTCGGATTTCGGGACGTGCTA", "log fluorescence [z-score]": 10.7}
{"Oligonucleotide": "GTCGGTCTCCTTCTCCTGACGTGCTAG", "log fluorescence [z-score]": 0.761}
{"Oligonucleotide": "TTAGGACTGGATTTCGGTTAGTGCTAG", "log fluorescence [z-score]": 0.817}
{"Oligonucleotide": "TTACCCCATCCCCCTTTTCTGTGCTAG", "log fluorescence [z-score]": 0.559}
{"Oligonucleotide": "TCATTTTTGGAATGTCTTACTGTGCTA", "log fluorescence [z-score]": 0.926}
{"data": "Study 3", "target": "PABPC1L2, full length, GST fusion (mouse, UniProt A0ABA7IW68)", "technique": "RNAcompete", "molecule type": "RNA", "sample": "in vitro", "concentration": "20 nM", "setting": "7-mer, probes averaged, single round", "baseline": "mean of 7-mers", "direction": "higher = stronger binding", "Residues (chain)": "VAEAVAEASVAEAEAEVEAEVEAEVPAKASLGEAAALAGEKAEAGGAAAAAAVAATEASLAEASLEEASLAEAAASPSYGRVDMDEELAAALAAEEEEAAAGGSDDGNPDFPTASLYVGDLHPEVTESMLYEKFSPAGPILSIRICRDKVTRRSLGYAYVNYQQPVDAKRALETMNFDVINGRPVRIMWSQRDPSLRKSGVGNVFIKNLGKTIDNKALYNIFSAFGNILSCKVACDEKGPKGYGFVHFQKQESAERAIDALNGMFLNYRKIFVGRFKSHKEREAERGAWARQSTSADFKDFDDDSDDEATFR"}
{"Oligonucleotide": "GUCCUAU", "7-mer Z-score": -0.4}
{"Oligonucleotide": "ACUUAUG", "7-mer Z-score": -0.188}
{"Oligonucleotide": "AUUGAGU", "7-mer Z-score": -0.242}
{"Oligonucleotide": "GGCAAGG", "7-mer Z-score": 0.361}
{"Oligonucleotide": "UAUAUAU", "7-mer Z-score": -0.137}
{"Oligonucleotide": "UGUCGGU", "7-mer Z-score": -0.142}
{"data": "Single results of other studies"}
{"Molecule": "PhoQ, residues 284 288 289 292 302 303 SACGEM", "target": "PhoP, residues 12 14 15 18 19 SGWQI (Escherichia coli, UniProt P23836)", "assay": "Sort-seq, measured: YFP reporter", "test system": "E. coli", "setting": "PhoQ-PhoP variant library, with: 10 µM Mg2+", "scale": "baseline: high Mg2+ state, higher = stronger signaling", "quantity": "fold induction", "result": 1.37}
